{"data": "Published values gathered from unrelated publications", "note": "Numbered parts are unrelated; each lists some results of a single study. Substitutions count along the parent as printed."}
{"data": "Block 1", "target": "ABI1, truncated, D143A, DHFR fusion (Arabidopsis thaliana)", "technique": "DHFR PCA, deep sequencing", "medium": "yeast", "setting": "methotrexate growth selection, single substitutions", "added": "(+)-ABA 58 µM", "relative to": "wild-type fitted maximum", "direction": "higher = stronger binding", "starting sequence": "PYL1, truncated, DHFR fusion (Arabidopsis thaliana); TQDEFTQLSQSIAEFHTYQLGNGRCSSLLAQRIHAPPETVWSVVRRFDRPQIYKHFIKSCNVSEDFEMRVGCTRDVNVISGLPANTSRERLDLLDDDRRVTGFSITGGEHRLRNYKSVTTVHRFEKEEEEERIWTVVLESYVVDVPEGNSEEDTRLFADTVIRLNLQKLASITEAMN; partner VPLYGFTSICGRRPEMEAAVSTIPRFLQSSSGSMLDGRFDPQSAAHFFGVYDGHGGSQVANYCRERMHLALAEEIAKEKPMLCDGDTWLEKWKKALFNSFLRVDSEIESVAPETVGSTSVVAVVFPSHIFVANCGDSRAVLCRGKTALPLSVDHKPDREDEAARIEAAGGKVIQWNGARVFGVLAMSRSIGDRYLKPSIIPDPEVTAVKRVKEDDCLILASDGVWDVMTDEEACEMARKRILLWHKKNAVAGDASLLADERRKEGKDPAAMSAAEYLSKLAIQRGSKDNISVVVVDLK"}
{"Variant": "F5Y", "relative binding score [%]": 80.1}
{"Variant": "V44P", "relative binding score [%]": -37.5}
{"Variant": "T101S", "relative binding score [%]": 69.8}
{"Variant": "N77I", "relative binding score [%]": 87.3}
{"Variant": "N61E", "relative binding score [%]": 90.4}
{"Variant": "T135K", "relative binding score [%]": 1.27}
{"Variant": "T6D", "relative binding score [%]": 92.6}
{"Variant": "Q19A", "relative binding score [%]": 87.6}
{"Variant": "S11V", "relative binding score [%]": 93.2}
{"Variant": "N22L", "relative binding score [%]": 87.4}
{"Variant": "A30G", "relative binding score [%]": 81}
{"Variant": "E14N", "relative binding score [%]": 62.2}
{"Variant": "G23P", "relative binding score [%]": 43}
{"Variant": "L29D", "relative binding score [%]": -13.5}
{"data": "Block 2", "target": "Histone acetyltransferase KAT6A, winged helix 1, GST fusion (KAT6A, Homo sapiens, UniProt Q92794, residues 1-85)", "technique": "protein binding microarray", "molecule type": "double-stranded DNA, one strand shown", "medium": "in vitro", "tested at": "not given", "setting": "8-mer, flanks averaged, mean of 2 arrays, mostly near background", "relative to": "not given", "direction": "higher = stronger binding", "Residues (chain)": "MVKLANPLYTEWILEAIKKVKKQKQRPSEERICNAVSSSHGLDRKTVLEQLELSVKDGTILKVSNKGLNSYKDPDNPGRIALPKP"}
{"Sequence": "ATGGCCTC", "E-score": -0.286}
{"Sequence": "ATCACTCA", "E-score": -0.0225}
{"Sequence": "AATGACAA", "E-score": -0.283}
{"Sequence": "CCTGTATC", "E-score": -0.124}
{"Sequence": "GGCCTAAC", "E-score": -0.1}
{"Sequence": "CATCGGGA", "E-score": 0.0905}
{"Sequence": "CATGCTCG", "E-score": -0.103}
{"Sequence": "AGACCAAA", "E-score": -0.119}
{"Sequence": "CACAGATA", "E-score": -0.224}
{"Sequence": "CCCGGCTC", "E-score": 0.142}
{"Sequence": "TTCCCCAA", "E-score": -0.202}
{"Sequence": "ATGGCGTG", "E-score": -0.04}
{"Sequence": "CTCAATCC", "E-score": -0.0458}
{"Sequence": "ACCTAGCA", "E-score": -0.189}
{"Sequence": "CCGATGGA", "E-score": 0.0878}
{"Sequence": "ACAGTCAG", "E-score": -0.0281}
{"Sequence": "CGCTACGC", "E-score": 0.404}
{"Sequence": "GAGAATCC", "E-score": -0.0288}
{"Sequence": "AGTGTGCC", "E-score": -0.0877}
{"data": "Block 3", "target": "Ras GTPase-activating protein-binding protein 1, full length (G3BP1, Homo sapiens, UniProt Q13283)", "technique": "RNA Bind-n-Seq", "molecule type": "RNA", "medium": "in vitro", "tested at": "200 nM", "setting": "whole 134-nt RNA, ends assumed", "added": "150 mM KCl", "relative to": "input library", "direction": "higher = stronger binding", "chain of UniProt Q13283 (whole entry, looked up)": "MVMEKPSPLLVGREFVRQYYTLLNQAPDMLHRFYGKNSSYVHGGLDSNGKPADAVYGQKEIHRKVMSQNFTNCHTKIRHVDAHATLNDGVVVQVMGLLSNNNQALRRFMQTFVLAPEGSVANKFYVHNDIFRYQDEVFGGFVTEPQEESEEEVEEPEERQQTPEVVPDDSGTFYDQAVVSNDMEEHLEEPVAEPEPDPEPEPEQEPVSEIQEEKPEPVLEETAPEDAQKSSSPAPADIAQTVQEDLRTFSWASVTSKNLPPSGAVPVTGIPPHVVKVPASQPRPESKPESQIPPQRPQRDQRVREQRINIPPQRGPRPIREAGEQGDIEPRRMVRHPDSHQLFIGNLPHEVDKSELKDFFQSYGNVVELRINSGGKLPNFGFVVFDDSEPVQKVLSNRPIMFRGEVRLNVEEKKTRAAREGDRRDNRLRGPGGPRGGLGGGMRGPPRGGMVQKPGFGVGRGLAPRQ"}
{"Sequence": "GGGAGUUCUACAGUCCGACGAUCACCAUGCAGGUGGGCAUCUUUGGGAAGUGGGGCAAGGGGGGGAUAGGGAGGGGGGUAACACUUUGAGAACAGGUGGUCCCAGGUCGUUUCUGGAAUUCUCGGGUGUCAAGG", "log2 enrichment": 1.23}
{"Sequence": "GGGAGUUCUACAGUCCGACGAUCGCCGGAAGUAAAAACAAAUGGAAAUGCUUCGGAUAGUGGCAGGGGUGGGGGUUGCUAAGGAAAGGGUGGGAUGGGAGUGGGUAAAGAGUUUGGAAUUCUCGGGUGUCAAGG", "log2 enrichment": 1.36}
{"Sequence": "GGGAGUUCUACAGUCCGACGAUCUAACUUUAGAGGAGGAUCUGAUGGAUAUGGCAGUGGACUUGGAUUUGGGGAUGGCUAUAAUGGGUAUGGAGGAGGACCUGGAGGUGGCAAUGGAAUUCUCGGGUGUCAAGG", "log2 enrichment": 0.263}
{"Sequence": "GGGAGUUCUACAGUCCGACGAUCGUGCUACACAUCGUAUGUACCGAAUCGGGGUUUUUUUGGGGUUUUUUUGGGGUUUUUUUGGGGAAAGUAUUAUGUUACGCCGUUCGGAUCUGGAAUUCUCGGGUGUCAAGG", "log2 enrichment": -0.452}
{"Sequence": "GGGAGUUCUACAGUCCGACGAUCUCCUGUGCUACACAUCGUAUGUACCGAAUCGGGGAGGGGUUUUUGGGGAAAAAAAGGGGAAAGUAUUAUGUUACGCCGUUCGGAUCUGCAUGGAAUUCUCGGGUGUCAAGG", "log2 enrichment": 0.541}
{"Sequence": "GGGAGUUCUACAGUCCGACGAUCUCUCUUAUGCUAUUGGAGUUUCUCAUCCAUUAUCUAUCUCCAUUUUCCAUUAUGGUACCUCUCAGAAGAGUGAGAGAGAGCUAUUAGAGAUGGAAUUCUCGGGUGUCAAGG", "log2 enrichment": -1.34}
{"Sequence": "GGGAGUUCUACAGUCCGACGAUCACCAUGCAGGUGGGCAUCUUUGGGAAGUGGGGCAAGGUGGGGAUAGGGAGGGGGGUAACACUUUGGGAACAGGUGGUCCCAGGUCGUUUCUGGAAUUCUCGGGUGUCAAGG", "log2 enrichment": 1.02}
{"Sequence": "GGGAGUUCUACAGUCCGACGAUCUCAAGUCCUGUGCUACACAUCGUAUGUACCGAAUCGGGAGGGAAAGGGUUUGGGAAAGUAUUAUGUUACGCCGUUCGGAUCUGCACUUCCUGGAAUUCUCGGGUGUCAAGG", "log2 enrichment": 0.971}
{"Sequence": "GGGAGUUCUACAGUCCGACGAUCCCUCAAGUCCUGUGCUACACAUCGUAUGUACCGAAUCGGUUUGGUGGUUUGGAAAGUAUUAUGUUACGCCGUUCGGAUCUGCACUUCCAGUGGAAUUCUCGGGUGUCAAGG", "log2 enrichment": -0.336}
{"Sequence": "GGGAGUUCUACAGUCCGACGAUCAAGUCCUGUGCUACACAUCGUAUGUACCGAAUCAAACCCAAACCCAAAUUUUUAAAAAAGUAUUAUGUUACGCCGUUCGGAUCUGCACUUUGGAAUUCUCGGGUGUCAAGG", "log2 enrichment": -0.484}
{"data": "Block 4", "target": "ATF2, bZIP domain (human)", "technique": "DHFR protein complementation", "medium": "yeast", "setting": "single substitutions, most at no-binding floor", "relative to": "wild-type JUN-FOS pair", "direction": "higher = stronger binding", "starting sequence": "JUN, bZIP domain (human); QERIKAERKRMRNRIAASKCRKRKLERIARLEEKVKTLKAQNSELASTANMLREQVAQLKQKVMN; partner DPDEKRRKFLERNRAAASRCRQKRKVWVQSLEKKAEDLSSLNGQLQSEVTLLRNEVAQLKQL"}
{"Variant": "T48M", "binding fitness [natural log]": -1.41}
{"Variant": "A49G", "binding fitness [natural log]": -1.45}
{"Variant": "L52I", "binding fitness [natural log]": -1.59}
{"Variant": "A57E", "binding fitness [natural log]": -1.54}
{"Variant": "T48D", "binding fitness [natural log]": -1.54}
{"Variant": "N42G", "binding fitness [natural log]": -1.48}
{"Variant": "A46F", "binding fitness [natural log]": -1.48}
{"Variant": "K34S", "binding fitness [natural log]": -1.39}
{"Variant": "N42V", "binding fitness [natural log]": -1.48}
{"Variant": "V35F", "binding fitness [natural log]": -1.46}
{"Variant": "L45T", "binding fitness [natural log]": -1.55}
{"Variant": "L45K", "binding fitness [natural log]": -1.52}
{"Variant": "L59C", "binding fitness [natural log]": -1.42}
{"Variant": "L31W", "binding fitness [natural log]": -1.41}
{"Variant": "L45Q", "binding fitness [natural log]": -1.49}
{"data": "Block 5", "target": "CCNA1, cyclin fold, Cln2 fusion (human)", "technique": "yeast growth competition, sequencing", "medium": "yeast", "setting": "weak parent motif", "relative to": "not given", "direction": "higher = stronger binding", "starting sequence": "RB1 docking peptide (human); PKPLKKLRFDIEG"}
{"Variant": "R8W", "normalised enrichment score": 0.126}
{"Variant": "I11R", "normalised enrichment score": -0.0314}
{"Variant": "K2F", "normalised enrichment score": 0.192}
{"Variant": "P3S", "normalised enrichment score": 0.662}
{"Variant": "G13A", "normalised enrichment score": 0.24}
{"Variant": "K2I", "normalised enrichment score": 0.567}
{"Variant": "L7G", "normalised enrichment score": 0.193}
{"Variant": "G13M", "normalised enrichment score": 0.286}
{"Variant": "R8V", "normalised enrichment score": 0.334}
{"Variant": "D10A", "normalised enrichment score": 0.491}
{"Variant": "P1A", "normalised enrichment score": 0.43}
{"Variant": "L7C", "normalised enrichment score": 0.311}
{"Variant": "F9H", "normalised enrichment score": 0.225}
{"Variant": "G13K", "normalised enrichment score": 0.535}
{"Variant": "K5N", "normalised enrichment score": 0.219}
{"Variant": "K2A", "normalised enrichment score": 0.191}
{"Variant": "K5W", "normalised enrichment score": -0.0437}
{"Variant": "L4Q", "normalised enrichment score": -0.0147}
{"Variant": "E12Q", "normalised enrichment score": 0.243}
{"Variant": "K2L", "normalised enrichment score": 0.423}
{"data": "Block 6", "target": "Sal-like protein 4, full length isoform A (SALL4, Homo sapiens, UniProt Q9UJQ4, residues 1-1053)", "technique": "universal PBM", "molecule type": "double-stranded DNA, one strand shown", "medium": "in vitro", "tested at": "600 nM", "setting": "8-mer, flanks averaged, mean of replicates", "direction": "higher = stronger binding", "chain of UniProt Q9UJQ4 (whole entry, looked up)": "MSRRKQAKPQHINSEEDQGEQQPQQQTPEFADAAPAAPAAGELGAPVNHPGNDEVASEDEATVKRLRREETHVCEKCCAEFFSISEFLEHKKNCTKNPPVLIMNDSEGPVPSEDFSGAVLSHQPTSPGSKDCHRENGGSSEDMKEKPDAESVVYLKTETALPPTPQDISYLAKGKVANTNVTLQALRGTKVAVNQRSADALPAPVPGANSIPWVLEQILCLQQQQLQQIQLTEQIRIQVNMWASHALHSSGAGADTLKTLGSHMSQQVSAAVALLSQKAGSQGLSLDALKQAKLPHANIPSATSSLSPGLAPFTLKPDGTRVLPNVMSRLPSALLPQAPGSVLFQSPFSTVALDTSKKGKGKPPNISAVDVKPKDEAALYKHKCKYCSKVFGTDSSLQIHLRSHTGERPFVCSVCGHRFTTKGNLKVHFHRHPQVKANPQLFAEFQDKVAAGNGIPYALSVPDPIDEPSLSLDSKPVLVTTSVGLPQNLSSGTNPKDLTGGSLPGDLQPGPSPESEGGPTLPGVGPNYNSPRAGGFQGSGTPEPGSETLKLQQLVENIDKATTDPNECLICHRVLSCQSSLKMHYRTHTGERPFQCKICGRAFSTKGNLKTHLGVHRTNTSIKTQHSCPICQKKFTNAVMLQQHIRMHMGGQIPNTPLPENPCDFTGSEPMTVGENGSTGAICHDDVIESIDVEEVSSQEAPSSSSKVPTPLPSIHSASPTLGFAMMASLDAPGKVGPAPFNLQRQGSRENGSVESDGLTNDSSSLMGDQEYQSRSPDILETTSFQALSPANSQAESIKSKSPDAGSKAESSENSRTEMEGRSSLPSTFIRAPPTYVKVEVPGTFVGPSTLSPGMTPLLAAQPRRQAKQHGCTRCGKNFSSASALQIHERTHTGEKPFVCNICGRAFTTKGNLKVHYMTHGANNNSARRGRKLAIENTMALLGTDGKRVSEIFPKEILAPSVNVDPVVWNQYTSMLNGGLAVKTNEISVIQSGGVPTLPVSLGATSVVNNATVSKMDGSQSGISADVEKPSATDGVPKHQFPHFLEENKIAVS"}
{"Sequence": "CGTGATAC", "E-score": 0.0688}
{"Sequence": "TCATGCGA", "E-score": -0.00234}
{"Sequence": "ATGCATGG", "E-score": 0.116}
{"Sequence": "GTAGCACA", "E-score": -0.0429}
{"Sequence": "GCCGTGGA", "E-score": -0.234}
{"Sequence": "CAAGAGTG", "E-score": 0.0374}
{"Sequence": "ATGTCACC", "E-score": -0.0454}
{"Sequence": "TAGGGCGA", "E-score": -0.0258}
{"Sequence": "CTAAATAG", "E-score": 0.15}
{"Sequence": "ATAAGTTC", "E-score": 0.233}
{"Sequence": "GTTTCCAA", "E-score": 0.0755}
{"Sequence": "AAACACTA", "E-score": 0.294}
{"Sequence": "CGCTTCTC", "E-score": -0.26}
{"Sequence": "AACCCCAT", "E-score": -0.0364}
{"Sequence": "CCAAATTA", "E-score": 0.269}
{"Sequence": "ATATAGCG", "E-score": 0.236}
{"note": "Excerpt of the above (block 6):"}
{"Sequence": "TCATGCGA", "E-score": -0.00234}
{"Sequence": "ATGCATGG", "E-score": 0.116}
{"Sequence": "GTAGCACA", "E-score": -0.0429}
{"Sequence": "GCCGTGGA", "E-score": -0.234}
{"Sequence": "CAAGAGTG", "E-score": 0.0374}
{"Sequence": "ATGTCACC", "E-score": -0.0454}
{"Sequence": "TAGGGCGA", "E-score": -0.0258}
{"Sequence": "CTAAATAG", "E-score": 0.15}
